Experimental data from different studies.
Compare with care: the assays were run in different laboratories. Values joined by “and” are separate records of one study, mostly repeats; a detail may differ.
Cell line: SK-MEL-5

SMILES	method	tested at	time	notes	baseline	quantity	result
CCCCN1CCN(c2ccc3[nH]c(-c4ccc5[nH]c(-c6ccc(OCC)c(OCC)c6)nc5c4)nc3c2)CC1	SRB	10 µM	48 h			growth percent	8.19%
O=C1NC(c2ccccc2)(c2ccccc2)C(=O)N1Cc1cn(-c2c3ccccc3nc3ccccc23)nn1	NCI60 single-dose screen	10 µM				growth percentage	82.2%
C#C[C@@]1(O)[C@@H](CO)O[C@@H](n2cc(F)c3c(N)ncnc32)[C@@H]1O	SRB			NCI-60 screen		TGI	1330 nM
CCCN1CCN(c2ccc3[nH]c(-c4ccc5[nH]c(-c6ccc(C(F)(F)F)cc6)nc5c4)nc3c2)CC1	SRB	10 µM	48 h			growth percent	37.2%
CCN(CC)c1ccc(C=NNC(=O)CSc2nc3ccccc3c(=O)n2Cc2ccc(S(N)(=O)=O)cc2)c(O)c1	NCI five-dose screen					TGI	4970 nM
C#C[C@@]1(O)[C@@H](CO)O[C@@H](n2cc(Cl)c3c(N)ncnc32)[C@@H]1O	SRB			NCI-60 screen		TGI	343 nM and 268 nM
CCOc1ccc(-c2nc3cc(-c4nc5cc(N6CCN(C)CC6)ccc5[nH]4)ccc3[nH]2)cc1OCC	SRB	10 µM	48 h			growth percent	8.43%
O=C1NC(c2ccccc2)(c2ccccc2)C(=O)N1Cc1cn(-c2cc3ccccc3oc2=O)nn1	NCI60 single-dose screen	10 µM				growth percentage	87.9%
O=C(Nc1nnc2[nH]c(=S)[nH]c(-c3ccc(Cl)cc3)c1-2)c1ccccc1	SRB	10 µM		NCI60 single-dose screen	untreated	cell growth	96.2%
Cn1cncc1C1=CN(c2ncnc3[nH]cnc23)CCS1				melanoma cell line		GI50	22900 nM
Cc1cc(=O)[nH]c(=O)n1Cc1cn(-c2c3ccccc3nc3ccccc23)nn1	NCI60 single-dose screen	10 µM				growth percentage	78.9%
O=C(Nc1nnc2n3c(Cc4ccccc4)n[nH]c3nc(-c3ccc(Cl)cc3)c1-2)c1ccccc1	SRB	10 µM		NCI60 single-dose screen	untreated	cell growth	97.7%
CN1CCN(c2ccc3[nH]c(-c4ccc5[nH]c(-c6ccc(C(F)(F)F)cc6)nc5c4)nc3c2)CC1	SRB	10 µM	48 h			growth percent	44.2%
CCCC(CCC)C(=O)OCc1cn(-c2c3ccccc3nc3ccccc23)nn1	NCI60 single-dose screen	10 µM				growth percentage	95.8%
Cc1cc(C)n(-c2nc(-c3ccc(Cl)cc3)c3c(NC(=O)c4ccccc4)nnc-3[nH]2)n1	SRB	10 µM		NCI60 single-dose screen	untreated	cell growth	87.9%
CC[C@H](C)[C@H](NC(=O)[C@H](CCCCN)NC(=O)[C@@H](NC(=O)[C@H](CCCNC(=N)N)NC(=O)[C@@H](NC(=O)[C@@H](CCCNC(=N)N)NC(=O)[C@@H](CCCNC(=N)N)NC(=O)[C@@H](CCCNC(=N)N)NC(=O)[C@@H](CCCNC(=N)N)NC(=O)[C@@H](CCCNC(=N)N)NC(=O)[C@H](N)CCCNC(=N)N)[C@@H](C)O)[C@@H](C)O)C(=O)N[C@@H](CC(=O)O)C(=O)N[C@@H](Cc1c[nH]c2ccccc12)C(=O)NC(C)(C)C(=O)N[C@@H](CCCCN)C(=O)N[C@H](C(=O)N[C@@H](CC(C)C)C(=O)NC(C)(C)C(=O)N[C@@H](CCCCN)C(=O)NCCCCCC(=O)NCCCC[C@H](NC(=O)CCCCCNC(=O)[C@H](CCCCN)NC(=O)C(C)(C)NC(=O)[C@H](CC(C)C)NC(=O)[C@@H](NC(=O)[C@H](CCCCN)NC(=O)C(C)(C)NC(=O)[C@H](Cc1c[nH]c2ccccc12)NC(=O)[C@H](CC(=O)O)NC(=O)[C@@H](NC(=O)[C@H](CCCCN)NC(=O)[C@@H](NC(=O)[C@H](CCCNC(=N)N)NC(=O)[C@@H](NC(=O)[C@@H](CCCNC(=N)N)NC(=O)[C@@H](CCCNC(=N)N)NC(=O)[C@@H](CCCNC(=N)N)NC(=O)[C@@H](CCCNC(=N)N)NC(=O)[C@@H](CCCNC(=N)N)NC(=O)[C@H](N)CCCNC(=N)N)[C@@H](C)O)[C@@H](C)O)[C@@H](C)CC)[C@@H](C)CC)C(N)=O)[C@@H](C)CC	annexin V/PI flow cytometry	10 µM	6 h			necrotic cells	14%
CCOC(=O)CSc1nc(-c2ccc(Cl)cc2)c2c(NC(=O)c3ccccc3)nnc-2[nH]1	SRB	10 µM		NCI60 single-dose screen	untreated	cell growth	97.1%
CCCCN1CCN(c2ccc3[nH]c(-c4ccc5[nH]c(-c6ccc(C(F)(F)F)cc6)nc5c4)nc3c2)CC1	SRB	10 µM	48 h			growth percent	10.8%
Cc1cc(=O)[nH]n1-c1nc(-c2ccc(Cl)cc2)c2c(NC(=O)c3ccccc3)nnc-2[nH]1	SRB	10 µM		NCI60 single-dose screen	untreated	cell growth	97.4%
CCCCN1CCN(c2ccc3[nH]c(-c4ccc5[nH]c(-c6cc(OC)c(OC)c(OC)c6)nc5c4)nc3c2)CC1	SRB	10 µM	48 h			growth percent	44.8%

Some of these lines once more:
SMILES	method	tested at	time	notes	baseline	quantity	result
CCOc1ccc(-c2nc3cc(-c4nc5cc(N6CCN(C)CC6)ccc5[nH]4)ccc3[nH]2)cc1OCC	SRB	10 µM	48 h			growth percent	8.43%
CC[C@H](C)[C@H](NC(=O)[C@H](CCCCN)NC(=O)[C@@H](NC(=O)[C@H](CCCNC(=N)N)NC(=O)[C@@H](NC(=O)[C@@H](CCCNC(=N)N)NC(=O)[C@@H](CCCNC(=N)N)NC(=O)[C@@H](CCCNC(=N)N)NC(=O)[C@@H](CCCNC(=N)N)NC(=O)[C@@H](CCCNC(=N)N)NC(=O)[C@H](N)CCCNC(=N)N)[C@@H](C)O)[C@@H](C)O)C(=O)N[C@@H](CC(=O)O)C(=O)N[C@@H](Cc1c[nH]c2ccccc12)C(=O)NC(C)(C)C(=O)N[C@@H](CCCCN)C(=O)N[C@H](C(=O)N[C@@H](CC(C)C)C(=O)NC(C)(C)C(=O)N[C@@H](CCCCN)C(=O)NCCCCCC(=O)NCCCC[C@H](NC(=O)CCCCCNC(=O)[C@H](CCCCN)NC(=O)C(C)(C)NC(=O)[C@H](CC(C)C)NC(=O)[C@@H](NC(=O)[C@H](CCCCN)NC(=O)C(C)(C)NC(=O)[C@H](Cc1c[nH]c2ccccc12)NC(=O)[C@H](CC(=O)O)NC(=O)[C@@H](NC(=O)[C@H](CCCCN)NC(=O)[C@@H](NC(=O)[C@H](CCCNC(=N)N)NC(=O)[C@@H](NC(=O)[C@@H](CCCNC(=N)N)NC(=O)[C@@H](CCCNC(=N)N)NC(=O)[C@@H](CCCNC(=N)N)NC(=O)[C@@H](CCCNC(=N)N)NC(=O)[C@@H](CCCNC(=N)N)NC(=O)[C@H](N)CCCNC(=N)N)[C@@H](C)O)[C@@H](C)O)[C@@H](C)CC)[C@@H](C)CC)C(N)=O)[C@@H](C)CC	annexin V/PI flow cytometry	10 µM	6 h			necrotic cells	14%
